# Measurements gathered from unrelated publications.
# Compare with care: the assays were run in different laboratories. Numbers after ± are the reported error.
Compound,target or system,test,test system,setting,how to read,endpoint,value
O=C(Nc1cccnn1)N1CCC(=Cc2cccc(Oc3ccc(C(F)(F)F)cn3)c2)CC1,COS cells expressing human FAAH,,cell lysate,"100 nM, 24 h",,intracellular concentration,34 ± 2.3 nM
Cc1cc(C)c2c(N)c(C(=O)Nc3ccon3)sc2n1,MDA-MB-231,MTT,,"100 µM, 72 h",,viability,44 ± 9%
CC[C@H](C)[C@@H]1NC(=O)[C@@H]2CCCN2C(=O)[C@H](CC(C)C)NC(=O)[C@H](CC(C)C)NC(=O)CNC(=O)[C@@H](NC(=O)[C@@H](NC(=O)[C@H](CC(=O)O)NC(=O)CNC(=O)[C@@H](NC(=O)[C@H](C)NC(=O)CNC(=O)[C@H](CCCCN)NC(=O)[C@H](CC(C)C)NC(=O)[C@H](CC(C)C)NC(=O)[C@H](CCCCN)NC(=O)CNC(=O)[C@@H](NC(=O)[C@@H](N)CC(C)C)C(C)C)C(C)C)C(C)C)CSSC[C@@H](C(=O)O)NC1=O,,"RNA-seq, refers to: Ier2","mouse, traumatic brain injury model, frontal cortex and hippocampus",dose not given,relative to: TBI alone,log2 fold change,-1.5
CC(C)CC(=O)OC[C@H]1O[C@@](C#N)(c2ccc3c(N)ncnn23)[C@H](O)[C@@H]1O,Caco-2,bidirectional permeability,,"0.9 µM, 120 min",apical to basolateral,recovery,105%
CC[C@H](C)[C@H](NC(=O)[C@H](Cc1ccccc1)NC(=O)[C@H](CCC(=O)O)NC(=O)[C@H](CCCNC(=N)N)NC(=O)[C@H](C)NC(=O)[C@H](C)NC(=O)[C@H](CCC(N)=O)NC(=O)[C@H](CCC(=O)O)NC(=O)[C@H](CCC(=O)O)NC(=O)[C@H](CC(C)C)NC(=O)[C@H](Cc1ccc(O)cc1)NC(=O)[C@H](CO)NC(=O)[C@H](CO)NC(=O)[C@@H](NC(=O)[C@H](CC(=O)O)NC(=O)[C@H](CO)NC(=O)[C@@H](NC(=O)[C@H](Cc1ccccc1)NC(=O)[C@@H](NC(=O)CNC(=O)[C@H](CCC(=O)O)NC(=O)[C@H](C)NC(=O)CCc1c[nH]cn1)[C@@H](C)O)[C@@H](C)O)C(C)C)C(=O)N[C@@H](C)C(=O)N[C@@H](Cc1c[nH]c2ccccc12)C(=O)N[C@@H](CC(C)C)C(=O)N[C@H](C(=O)N[C@@H](CCCNC(=N)N)C(=O)NCC(=O)N[C@@H](CCCNC(=N)N)C(=O)N[C@@H](CCCCNC(=O)COCCOCCNC(=O)COCCOCCNC(=O)CC[C@H](NC(=O)CCCCCCCCCCCCCCCCC(=O)O)C(=O)O)C(=O)NCC(=O)NCC(=O)N[C@@H](CO)C(=O)N[C@@H](CCCCNc1c(NCCCCCN(O)C(=O)CCC(=O)NCCCCCN(O)C(=O)CCC(=O)NCCCCCN(O)C(C)=O)c(=O)c1=O)C(=O)O)C(C)C [zirconium-89 labelled],,gamma counting,"rat, skin of neck","subcutaneous, 3 nmol/kg, 4 h",,tissue uptake,0.17 %ID/g
COc1cc2c(Oc3ccc4[nH]c(C)cc4c3F)ccnc2cc1OCC1(N)CC1,,refers to: grade 1 or 2 hand-foot syndrome,paediatric high-risk refractory sarcoma,8 mg,,incidence of adverse event,13.3%
O=c1ccc2ccccc2o1,HepaRG 3D spheroids,cellular ATP,,"72 h, high-content imaging",,point of departure,194 µM
CC(c1ccccc1)(c1ccc(O)cc1)c1ccc(O)cc1,"HepG2 spheroids, dissociated",annexin V-FITC/PI flow cytometry,,"1 µM, 96 h",,early apoptotic cells,6.43 ± 2.25%
O=C(Nc1cccnn1)N1CCC(=Cc2cccc(Oc3ccc(C(F)(F)F)cn3)c2)CC1,COS cells expressing human FAAH,,,"100 nM, 3 h",,supernatant concentration,64.4 ± 1.7 nM
Oc1ccc(C2(c3ccc(O)cc3)c3ccccc3-c3ccccc32)cc1,HepG2 spheroids,annexin V-FITC/PI flow cytometry,,"1 µM, 96 h",,necrotic cells,59.5 ± 26.2%
Cc1cc(-c2ccccc2)nc(SCC(=O)Nc2cccnc2)c1C#N,MDA-MB-231,MTT,,"100 µM, 72 h",,viability,36 ± 4%
O=C(Nc1cnccc1Cl)N1CCN(Cc2ccc3c(c2)OC(F)(F)O3)CC1,COS cells expressing human FAAH,,COS cell culture supernatant,"100 nM, 24 h",,concentration,93.5 ± 3.5 nM
Cc1cc(-c2ccccc2)nc2sc(C(=O)Nc3nccs3)c(N)c12,MDA-MB-231,MTT,,"100 µM, 72 h",,viability,18 ± 3%
C[C@]1(CO)Cc2ncn(-c3ccc(C#N)c(Cl)c3)c2C(=O)O1,,,human,20 mg single dose,,subjects with drug-related headache,14.3%
O=S(=O)(c1ccc(O)cc1)c1ccc(O)cc1,HepG2 spheroids,annexin V-FITC/PI flow cytometry,,"0.10 µM, 96 h",,late apoptotic cells,39.1 ± 10.3%
COc1cc(CNC(=O)CSc2nc(-c3ccccc3)cc(C(F)(F)F)c2C#N)cc(OC)c1OC,MDA-MB-231,MTT,,"100 µM, 72 h",,viability,45 ± 3%
CN(C(=O)n1cnc(-c2ccc[n+]([O-])c2)c1)C1CCCCC1,COS cells expressing human FAAH,,cell lysate,"100 nM, 0 h, quantification limit 5 nM",,compound concentration,not detected
C[C@H]1CN(c2n[nH]c3nc(N[C@H]4CC[C@H](NS(=O)(=O)CCC(F)(F)F)CC4)ncc23)CCO1,"Large ribosomal subunit protein uL5 (Homo sapiens, UniProt P62913)","Kinobeads competition, refers to: RPL11",,"0.032 µM, unit not given",relative to: vehicle,remaining binding,1.08
CO[C@H]1C[C@@H]2CC[C@@H](C)[C@@](O)(O2)C(=O)C(=O)N2CCCC[C@H]2C(=O)O[C@H]([C@H](C)C[C@@H]2CC[C@@H](OC(=O)NCCOCCOCCOCCOCCOCCOCCOCCOCCC(=O)N3CCc4cc(Cn5nc(-c6ccc7oc(N)nc7c6)c6c(N)ncnc65)ccc4C3)[C@H](OC)C2)C[C@@H](O)[C@H](C)/C=C(\C)[C@@H](O)[C@@H](OC)C(=O)[C@H](C)C[C@H](C)/C=C/C=C/C=C/1C,,,patients with advanced solid tumours,"intravenous, dose not given, any grade",,incidence of Mucositis TEAE,57.9%

# Some of these lines once more:
Compound,target or system,test,test system,setting,how to read,endpoint,value
CC[C@H](C)[C@@H]1NC(=O)[C@@H]2CCCN2C(=O)[C@H](CC(C)C)NC(=O)[C@H](CC(C)C)NC(=O)CNC(=O)[C@@H](NC(=O)[C@@H](NC(=O)[C@H](CC(=O)O)NC(=O)CNC(=O)[C@@H](NC(=O)[C@H](C)NC(=O)CNC(=O)[C@H](CCCCN)NC(=O)[C@H](CC(C)C)NC(=O)[C@H](CC(C)C)NC(=O)[C@H](CCCCN)NC(=O)CNC(=O)[C@@H](NC(=O)[C@@H](N)CC(C)C)C(C)C)C(C)C)C(C)C)CSSC[C@@H](C(=O)O)NC1=O,,"RNA-seq, refers to: Ier2","mouse, traumatic brain injury model, frontal cortex and hippocampus",dose not given,relative to: TBI alone,log2 fold change,-1.5
